Published values gathered from unrelated publications.
A part holds a random share of what one study measured.

Study 1
SMILES: CC(C)n1cnc(-c2ccc(F)cc2)c1-c1ncc(C(=O)Nc2ccc(N3CCN(C)CC3)cc2)[nH]1
Technique: phase 2a trial
Host: idiopathic pulmonary fibrosis patients
Measurement: patients with lower respiratory infection
all dose arms pooled, grade 4: 0%
60 mg once daily, grade 2: 0%
all dose arms pooled, grade 5: 0%
60 mg once daily, grade 5: 0%
30 mg once daily, grade 3: 0%
all dose arms pooled, grade 1: 0%

Study 2
SMILES: Nc1c(C(=O)NCc2ccc(C(=O)NCCCC3CCCCC3)cc2)cnn1-c1ccccc1
Read-out: cell-free assay
Technique: competition with immobilised ligand
Tested at: 0.1 µM
Measurement: remaining binding
Epidermal growth factor receptor (EGFR, Homo sapiens, UniProt P00533, L858R): 100%
Serine/threonine-protein kinase MAK (MAK, Homo sapiens, UniProt P20794): 100%
Ankyrin repeat and protein kinase domain-containing protein 1 (ANKK1, Homo sapiens, UniProt Q8NFD2): 100%
Serine/threonine-protein kinase N1 (PKN1, Homo sapiens, UniProt Q16512): 96%
Serine/threonine-protein kinase 32B (STK32B, Homo sapiens, UniProt Q9NY57): 100%
Serine/threonine-protein kinase Nek5 (NEK5, Homo sapiens, UniProt Q6P3R8): 99%
Cyclin-dependent kinase 3 (CDK3, Homo sapiens, UniProt Q00526): 100%
Serine/threonine-protein kinase D3 (PRKD3, Homo sapiens, UniProt O94806): 92%
eIF-2-alpha kinase GCN2, C-terminal kinase domain (EIF2AK4, Homo sapiens, UniProt Q9P2K8, S808G): 100%
ALK tyrosine kinase receptor (ALK, Homo sapiens, UniProt Q9UM73, L1196M): 100%
Receptor-type tyrosine-protein kinase FLT3 (FLT3, Homo sapiens, UniProt P36888, K663Q): 100%
Tyrosine-protein kinase Mer (MERTK, Homo sapiens, UniProt Q12866): 100%
Casein kinase I isoform gamma-3 (CSNK1G3, Homo sapiens, UniProt Q9Y6M4): 100%
Cyclin-dependent kinase 15 (CDK15, Homo sapiens, UniProt Q96Q40): 95%
Aurora kinase B (AURKB, Homo sapiens, UniProt Q96GD4): 81%
Activated CDC42 kinase 1 (TNK2, Homo sapiens, UniProt Q07912): 89%
Serine/threonine-protein kinase BRSK1 (BRSK1, Homo sapiens, UniProt Q8TDC3): 94%
Mitogen-activated protein kinase kinase kinase 15 (MAP3K15, Homo sapiens, UniProt Q6ZN16): 100%
Ribosomal protein S6 kinase alpha-2, C-terminal kinase domain (RPS6KA2, Homo sapiens, UniProt Q15349): 90%
Interferon-induced, double-stranded RNA-activated protein kinase (EIF2AK2, Homo sapiens, UniProt P19525): 54%
Tyrosine-protein kinase ABL1, phosphorylated (ABL1, Homo sapiens, UniProt P00519, H396P): 100%
Cyclin-dependent kinase-like 5 (CDKL5, Homo sapiens, UniProt O76039): 100%
Macrophage colony-stimulating factor 1 receptor, autoinhibited (CSF1R, Homo sapiens, UniProt P07333): 100%
Casein kinase II subunit alpha (CSNK2A1, Homo sapiens, UniProt P68400): 70%
Muscle, skeletal receptor tyrosine-protein kinase (MUSK, Homo sapiens, UniProt O15146): 97%

Study 3
SMILES: O=C(O)/C=C/c1cc(Br)c(Br)c(Br)c1Br
Read-out: enzyme activity
Action: inhibitor
Tested at: 0.5 µM
Relative to: control
Measurement: remaining activity
Mitogen-activated protein kinase 9 (MAPK9, Homo sapiens, UniProt P45984): 96.4%
Tyrosine-protein kinase Lyn, isoform B (LYN, Homo sapiens, UniProt P07948): 102%
Calcium/calmodulin-dependent protein kinase type II subunit delta (CAMK2D, Homo sapiens, UniProt Q13557): 77.8%
Inhibitor of nuclear factor kappa-B kinase subunit beta (IKBKB, Homo sapiens, UniProt O14920): 95.7%
Cyclin-dependent kinase 4, with cyclin D1 (CDK4, Homo sapiens, UniProt P11802): 89.3%
Mitogen-activated protein kinase kinase kinase 3 (MAP3K3, Homo sapiens, UniProt Q99759): 105%
Serine/threonine-protein kinase Chk2 (CHEK2, Homo sapiens, UniProt O96017): 77.5%
Calcium/calmodulin-dependent protein kinase kinase 2 (CAMKK2, Homo sapiens, UniProt Q96RR4): 79.6%
Cyclin-dependent kinase 5, with p25 (CDK5, Homo sapiens, UniProt Q00535): 84.1%
cGMP-dependent protein kinase 1, isoform beta (PRKG1, Homo sapiens, UniProt Q13976): 89%
Death-associated protein kinase 2 (DAPK2, Homo sapiens, UniProt Q9UIK4): 104%
Protein kinase C alpha type (PRKCA, Homo sapiens, UniProt P17252): 79%
STE20/SPS1-related proline-alanine-rich protein kinase (STK39, Homo sapiens, UniProt Q9UEW8): 97.9%
Serine/threonine-protein kinase 10 (STK10, Homo sapiens, UniProt O94804): 85.8%
Death-associated protein kinase 1 (DAPK1, Homo sapiens, UniProt P53355): 73.7%
Protein kinase C beta type, isoform beta-I (PRKCB, Homo sapiens, UniProt P05771): 95.5%
Inhibitor of nuclear factor kappa-B kinase subunit epsilon (IKBKE, Homo sapiens, UniProt Q14164): 96.8%
cAMP-dependent protein kinase catalytic subunit alpha (PRKACA, Homo sapiens, UniProt P17612): 98.4%
G protein-coupled receptor kinase 3 (GRK3, Homo sapiens, UniProt P35626): 94.3%
Serine/threonine-protein kinase STK11 (STK11, Homo sapiens, UniProt Q15831): 42.8%
Serine/threonine-protein kinase OSR1 (OXSR1, Homo sapiens, UniProt O95747): 93.5%
Serine/threonine-protein kinase Nek2 (NEK2, Homo sapiens, UniProt P51955): 92%
TGF-beta receptor type-2 (TGFBR2, Homo sapiens, UniProt P37173): 85.7%

Study 4
Host: human
Sample: microsomes or S9
Tested at: 2 µM
Time: 0.5 h
Measurement: remaining compound
CCCCN(C)C(=O)CSc1nnc2c3cc(-c4cc(C)ccc4C)nn3ccn12: 72.5%
Cc1cc(-c2c3ccccc3c(Br)c3sc(C)c(C)c23)cc(C)c1O[C@H](Cc1ccccc1)C(=O)O: > 99%
Cc1cc(N(C)Cc2ncc(Br)cn2)n2nc(C)nc2n1: > 100%
C[S+]([O-])c1nn(-c2ccc(Cl)c(Cl)c2)c(-c2ccc(Cl)c(Cl)c2)c1-n1ccnc1 (stereo not shown): 2.22%
COc1cc(NC(=O)NC2CCN(c3nc4ccccc4n(CC(C)C)c3=O)CC2)cc(OC)c1: 79.5%
Ic1ccc(-n2ccnc2)cc1: > 99%
COc1ccc2c(c1)OC1c3ccc(O)cc3OCC21 (stereo not shown): 71.8%
COC(=O)CNC(=O)C(C)NC(=O)/C=C/c1cc(-n2nc(C)n(C(F)F)c2=O)c(F)cc1Cl (stereo not shown): 51.5%
CC(C)(C)c1nnc2ccc(NC3CCCc4cn(C5CCCC5)nc43)nn12 (stereo not shown): 30.3%
CC(C)(C)OC(=O)c1ccc(-c2c[nH]c(-c3ccc(S(C)(=O)=O)c(F)c3)n2)cc1: 89.6%

Repeated from above (study 2):
Serine/threonine-protein kinase N1 (PKN1, Homo sapiens, UniProt Q16512): 96%
Cyclin-dependent kinase 3 (CDK3, Homo sapiens, UniProt Q00526): 100%
Cyclin-dependent kinase-like 5 (CDKL5, Homo sapiens, UniProt O76039): 100%
Tyrosine-protein kinase ABL1, phosphorylated (ABL1, Homo sapiens, UniProt P00519, H396P): 100%
